Assay results gathered from unrelated publications.
Lines come from different studies, so protocols differ. In brackets after ≈: the same amount, converted by molar mass.

Structure (SMILES) | organism | assay | test system | conditions | how to read | endpoint | value
CO[C@H]1/C=C/O[C@@]2(C)Oc3c(C)c(O)c4c(O)c(c(/C=N/N5CCN(C)CC5)c(O)c4c3C2=O)NC(=O)/C(C)=C\C=C\[C@H](C)[C@H](O)[C@@H](C)[C@@H](O)[C@@H](C)[C@H](OC(C)=O)[C@@H]1C | Mycobacteroides abscessus |  | ATCC 19977 | 72 h |  | MIC | 150 µM (≈ 123 µg/mL)
CCCCCCC#Cc1cncc(-c2nnc(SCc3cc([N+](=O)[O-])cc([N+](=O)[O-])c3)n2C)c1 | Mycobacteroides abscessus |  |  |  | no activity below value | MIC | ≥ 200 µM
O=S(=O)([O-])CCSSCCS(=O)(=O)[O-].[Na+].[Na+] | human coronavirus OC43 | virus-induced cell killing | MRC-5 | screen |  | maximum inhibition | 15.7%
CC[C@H]1OC(=O)[C@H](C)[C@@H](O[C@H]2C[C@@](C)(OC)[C@@H](O)[C@H](C)O2)[C@H](C)[C@@H](O[C@@H]2O[C@H](C)C[C@H](N(C)C)[C@H]2O)[C@](C)(OC)C[C@@H](C)C(=O)[C@H](C)[C@@H](O)[C@]1(C)O | Mycobacteroides abscessus |  | RFB-R1 rifamycin-resistant RNAP mutant |  | 90% growth inhibition | MIC | 2.1 µM (≈ 1.57 µg/mL)
CS(=O)(=O)Nc1ncn(-c2cc(F)c(COc3ccc(OS(=O)(=O)F)cc3)c(F)c2)n1 | Mycobacteroides abscessus |  |  |  |  | MIC | 6.25 µM (≈ 2.99 µg/mL)
CCOC(=O)COc1ccc2ccc3oc([N+](=O)[O-])cc3c2c1 | Mycobacteroides abscessus | REMA | ATCC 19977 |  |  | MIC90 | 4 µg/mL (≈ 12.7 µM)
CO[C@H]1/C=C/O[C@@]2(C)Oc3c(C)c(O)c4c(c3C2=O)C2=NC3(CCN(CC(C)C)CC3)NC2=C(NC(=O)/C(C)=C\C=C\[C@H](C)[C@H](O)[C@@H](C)[C@@H](O)[C@@H](C)[C@H](OC(C)=O)[C@@H]1C)C4=O | Mycobacteroides abscessus |  | RFB-R1 rifamycin-resistant RNAP mutant |  | 90% growth inhibition | MIC | > 100 µM
COC(=O)c1ccc2c(ccc3oc([N+](=O)[O-])cc32)c1 | Mycobacteroides abscessus | REMA | ATCC 19977 |  |  | MIC90 | > 32 µg/mL
Cc1ccc(-c2nc3ccc(C)cn3c2CC(=O)N(C)C)cc1 | Mycobacteroides abscessus |  | ATCC 19977 | 72 h |  | MIC | > 50 µM
CC1=C(/C=C/C(C)=C/C=C/C(C)=C\C(=O)O)C(C)(C)CCC1 | human coronavirus OC43 | virus-induced cell killing | MRC-5 | screen |  | maximum inhibition | 16.5%

Some of these lines once more:
Structure (SMILES) | organism | assay | test system | conditions | how to read | endpoint | value
CCOC(=O)COc1ccc2ccc3oc([N+](=O)[O-])cc3c2c1 | Mycobacteroides abscessus | REMA | ATCC 19977 |  |  | MIC90 | 4 µg/mL (≈ 12.7 µM)
